Assay results gathered from unrelated publications.
Every numbered part comes from another study and shows a few of its results, in no order. Substitutions count along the parent as printed.

Series 1
Target: Fragile X messenger ribonucleoprotein 1, C-terminal low-complexity region (Fmr1, Mus musculus, UniProt P35922)
Technique: RNA Bind-n-Seq
Form: RNA
Medium: in vitro
Concentration: 200 nM
Setting: whole 134-nt RNA, ends assumed
With: 150 mM KCl
Baseline: input library
Direction: higher = stronger binding
Constant ends, left off below: GGGAGUUCUACAGUCCGACGAUC … UGGAAUUCUCGGGUGUCAAGG
Strand	log2 enrichment
GCAGGAAGUAAAAACAAAUGGAAAUGCUUCGGAUAGUGGCAGGGGUGGGGGUUGCUAAGGAAAGGGUGGAAAGGGAGUGGGUAAAGAGUU	0.0838
CUGUGCUACACAUCGUAUGUACCGAAUCGGGAAAAAAAGGGGAAAAAAAGGGAAAAAAAGGAAAGUAUUAUGUUACGCCGUUCGGAUCUG	-0.912
AGUCCUGUGCUACACAUCGUAUGUACCGAAUCGGUUUUUGGGGUUUUUGGGUUUUUGGAAAGUAUUAUGUUACGCCGUUCGGAUCUGCAC	-0.197
CACAGACAACACGCACCCACACAGACACAGAGGGAAGGGGUUGGGAUGGGGACAGGGUGCACAGCAGGGCGGGGUAGGACCCCAGCCACU	1.09
UAACUAUAGAGGAGGAUCUGAUGGAUAUGGCAGUGGACGUGGAUUUGGGGAUGGCUAUAAUGGGUAUGGAGGAGGACCUGGAGGUGGCAA	0.258
UUCUUGCCAGAGACGAAGAAGCGCAAGAAACGCAAGUCAGAGGAUGGCACGCCAGCGGAGGAUGGCACACCUGCAGCCACCGGCGGGAGC	-1.3
CAAGUCCUGUGCUACACAUCGUAUGUACCGAAUCGGAAAAGGGAAAAGGAAAAGGGAAAGUAUUAUGUUACGCCGUUCGGAUCUGCACUU	-0.702
UCAAGUCCUGUGCUACACAUCGUAUGUACCGAAUCGGUUUGGGUUUGGGUUUGGGAAAGUAUUAUGUUACGCCGUUCGGAUCUGCACUUC	-0.404
UGGGAGGUGGAUUUUGUUUAUUUUUUUAGCUCAUUUCCAGGGGUGGGAAUUUUUUUUUAAUAUGUGUCACGAAUAAAGUUGUUUUUGAAA	0.431
CCUGUGCUACACAUCGUAUGUACCGAAUCGGGUUUUUUUGGGUUUUUGGGAAAAAAAGGGAAAGUAUUAUGUUACGCCGUUCGGAUCUGC	-0.741

Series 2
Target: Sal-like protein 4, full length isoform A (SALL4, Homo sapiens, UniProt Q9UJQ4, residues 1-1053)
Chain of UniProt Q9UJQ4 (whole entry, looked up): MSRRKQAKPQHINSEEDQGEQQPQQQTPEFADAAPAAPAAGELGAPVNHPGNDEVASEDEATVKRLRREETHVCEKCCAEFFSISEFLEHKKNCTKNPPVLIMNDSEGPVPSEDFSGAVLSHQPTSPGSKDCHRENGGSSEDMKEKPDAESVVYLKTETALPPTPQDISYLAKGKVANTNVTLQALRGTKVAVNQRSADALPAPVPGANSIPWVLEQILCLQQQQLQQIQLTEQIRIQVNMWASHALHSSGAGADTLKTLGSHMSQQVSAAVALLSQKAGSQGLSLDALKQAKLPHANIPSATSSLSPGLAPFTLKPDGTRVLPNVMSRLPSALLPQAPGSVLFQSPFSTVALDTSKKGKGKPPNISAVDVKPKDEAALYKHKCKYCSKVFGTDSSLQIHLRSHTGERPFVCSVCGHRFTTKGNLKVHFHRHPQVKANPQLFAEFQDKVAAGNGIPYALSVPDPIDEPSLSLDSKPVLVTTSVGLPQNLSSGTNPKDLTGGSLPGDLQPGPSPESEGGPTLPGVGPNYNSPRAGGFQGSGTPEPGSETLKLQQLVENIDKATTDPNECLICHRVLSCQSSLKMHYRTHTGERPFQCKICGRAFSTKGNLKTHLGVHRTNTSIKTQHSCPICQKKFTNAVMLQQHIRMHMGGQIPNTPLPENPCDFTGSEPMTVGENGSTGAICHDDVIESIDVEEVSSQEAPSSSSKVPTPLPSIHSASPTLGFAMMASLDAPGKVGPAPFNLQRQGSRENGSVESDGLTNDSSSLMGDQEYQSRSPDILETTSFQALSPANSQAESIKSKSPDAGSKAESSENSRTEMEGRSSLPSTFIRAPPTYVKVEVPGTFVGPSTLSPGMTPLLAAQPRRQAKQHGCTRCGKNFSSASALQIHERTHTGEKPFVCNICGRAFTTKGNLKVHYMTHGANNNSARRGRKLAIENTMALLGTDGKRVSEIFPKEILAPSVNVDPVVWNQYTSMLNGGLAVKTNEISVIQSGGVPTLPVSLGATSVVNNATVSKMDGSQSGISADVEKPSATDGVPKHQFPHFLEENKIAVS
Technique: universal PBM
Form: double-stranded DNA, one strand shown
Medium: in vitro
Concentration: 600 nM
Setting: 8-mer, flanks averaged, mean of replicates
Direction: higher = stronger binding
Strand	E-score
GTTTACGA	0.0471
AGTAGAAC	0.166
ACAATGTC	0.0711
TGAACACA	0.137
ATATCCTC	0.171
ACTCGATC	-0.117
CTTAACTA	0.177
ATTGTGCC	0.0291
AACCATCT	-0.104
CTTCGGTC	-0.0383
CACCCCCG	-0.178
CACCACGA	-0.0425
AAGTACTT	0.154
ATGATTAG	0.271
CTCAGGCC	-0.277
CGTATTTC	0.22
GCGTAACC	-0.0745
GAGGAGAC	-0.233
CCAACCAG	-0.206
AGCAACGA	0.0114
CCATCCTC	-0.169
GCAATTAC	0.0819
GGATACGA	0.00883
AGGTATCG	0.0308
ACATTTTA	0.356

Series 3
Target: ABI1, truncated, D143A, DHFR fusion (Arabidopsis thaliana)
Technique: DHFR PCA, deep sequencing
Medium: yeast
Setting: methotrexate growth selection, single substitutions
With: (+)-ABA 0.0091 µM
Baseline: wild-type fitted maximum
Direction: higher = stronger binding
Parent: PYL1, truncated, DHFR fusion (Arabidopsis thaliana); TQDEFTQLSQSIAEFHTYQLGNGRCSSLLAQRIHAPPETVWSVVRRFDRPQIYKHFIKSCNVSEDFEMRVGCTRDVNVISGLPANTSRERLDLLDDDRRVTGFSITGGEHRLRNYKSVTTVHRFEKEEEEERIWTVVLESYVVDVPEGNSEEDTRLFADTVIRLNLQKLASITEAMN; partner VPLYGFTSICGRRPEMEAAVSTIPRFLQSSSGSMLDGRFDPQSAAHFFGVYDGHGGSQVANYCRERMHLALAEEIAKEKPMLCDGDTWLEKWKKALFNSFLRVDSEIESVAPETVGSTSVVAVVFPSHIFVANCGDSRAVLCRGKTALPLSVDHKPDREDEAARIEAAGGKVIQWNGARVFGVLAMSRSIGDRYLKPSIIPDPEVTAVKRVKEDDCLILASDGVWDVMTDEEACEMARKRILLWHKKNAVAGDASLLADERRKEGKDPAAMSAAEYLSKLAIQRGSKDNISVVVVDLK
Substitution	relative binding score [%]
S63Q	22.2
E127L	31.5
E125L	13.8
D92R	2.18
T119L	-3.58
K54H	3.66
V62N	-2.77
N77T	69.4
L138S	1.06
N22V	33.2
L8W	9.21
E147D	35.4

Series 4
Target: Prothrombin, mature alpha-thrombin (F2, Homo sapiens, UniProt P00734)
Technique: aptamer microarray, sandwich
Form: DNA with 2'F-ANA
Medium: in vitro
Concentration: 200 nM
Setting: whole 15-mer aptamer, many near background
With: Cy3 exosite-II aptamer, 400 nM
Direction: higher = stronger binding
Strand: GGTTGGTGTGGTTGG
Modification	mean fluorescence intensity
2'F-ANA at 1 2 4 6 7 9 10 13 14	68.2 a.u.
2'F-ANA at 1 4 5 7 8 15	67.3 a.u.
2'F-ANA at 1 2 3 4 5 10 12 13	59.3 a.u.
2'F-ANA at 2 4 6 10 13 14	121 a.u.
2'F-ANA at 3 6 7 9 11 12 13	900 a.u.
2'F-ANA at 1 4 6 7 10 15	45.9 a.u.
2'F-ANA at 5 8 10 12 14 15	46.7 a.u.
2'F-ANA at 1 4 5 8 9 11 12 13 14 15	52.4 a.u.
2'F-ANA at 1 2 3 4 6 8 14	65.1 a.u.
2'F-ANA at 3 4 7 9 11 12 13 15	662 a.u.
2'F-ANA at 1 2 3 5 8 9 10 12 15	51.7 a.u.
2'F-ANA at 1 3 4 5 7 8 9 12 14	53.1 a.u.
2'F-ANA at 3 4 5 7 10 11 12 14	48.4 a.u.
2'F-ANA at 1 4 7 9 10 13 14	53.5 a.u.
2'F-ANA at 3 4 7 9 10 11 12 13 14	192 a.u.
2'F-ANA at 2 11 12 14 15	213 a.u.
2'F-ANA at 1 2 3 4 5 10 11	47.6 a.u.
2'F-ANA at 1 4 5 7 8 11 13 14	44.4 a.u.
2'F-ANA at 3 4 5 6 8 9 10 11 12 13 15	187 a.u.
2'F-ANA at 3 4 5 7 11 13	80.5 a.u.
2'F-ANA at 1 2 3 5 6 11 14	47.2 a.u.
2'F-ANA at 2 3 4 5 7 9 11 13 15	60.7 a.u.
2'F-ANA at 1 4 6 7 9 10 12	57.3 a.u.
2'F-ANA at 1 5 7 9 12 14	42.7 a.u.

Series 5
Target: CCNE2, cyclin fold, Cln2 fusion (human)
Technique: yeast growth competition, sequencing
Medium: yeast
Setting: weak parent motif
Baseline: not given
Direction: higher = stronger binding
Parent: CUX1 docking peptide (human); SRIRRELFIEEIQ; partner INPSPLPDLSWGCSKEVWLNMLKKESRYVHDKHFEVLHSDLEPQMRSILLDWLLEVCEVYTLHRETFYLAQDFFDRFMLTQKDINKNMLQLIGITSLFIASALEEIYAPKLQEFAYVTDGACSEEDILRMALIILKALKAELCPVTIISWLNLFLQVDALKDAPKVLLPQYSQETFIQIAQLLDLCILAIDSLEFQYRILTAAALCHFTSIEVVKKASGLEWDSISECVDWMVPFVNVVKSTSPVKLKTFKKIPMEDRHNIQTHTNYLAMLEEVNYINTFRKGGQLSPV
Substitution	normalised enrichment score
SRIRRELFIEEAQ [I12A]	-0.42
SRIRRELAIEEIQ [F8A]	0.53
SRIRKELLIEEIQ [R5K F8L]	0.523
SRIRREAFIEEIQ [L7A]	0.189
SAIRRELFIEEIQ [R2A]	1.15
SRIRRELFAEEIQ [I9A]	-0.183
SRARRELFIEEIQ [I3A]	1.08

Repeated from above (series 4):
Modification	mean fluorescence intensity
2'F-ANA at 3 6 7 9 11 12 13	900 a.u.
2'F-ANA at 1 4 6 7 10 15	45.9 a.u.
2'F-ANA at 5 8 10 12 14 15	46.7 a.u.
2'F-ANA at 1 4 5 8 9 11 12 13 14 15	52.4 a.u.
2'F-ANA at 1 2 3 4 6 8 14	65.1 a.u.
2'F-ANA at 3 4 7 9 11 12 13 15	662 a.u.
